Results gathered from unrelated publications.
Numbered parts are unrelated; each lists some results of a single study. Substitutions count along the parent as printed.

Series 1 — target: CEBPE, bZIP domain (human); method: DHFR protein complementation; matrix: yeast; baseline: wild-type JUN-FOS pair; reading: higher = stronger binding
Setting: single substitutions, most at no-binding floor
Starting sequence: JUN, bZIP domain (human); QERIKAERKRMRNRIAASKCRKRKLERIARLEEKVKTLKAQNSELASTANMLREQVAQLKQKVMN; partner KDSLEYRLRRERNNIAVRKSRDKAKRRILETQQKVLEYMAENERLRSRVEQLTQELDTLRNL
Change | binding fitness
I28C | -1.27 natural log
E44A | -1.15 natural log
V56F | -1.46 natural log
I28P | -1.39 natural log
L38W | -1.53 natural log
L38P | -1.49 natural log
E44W | -1.39 natural log
L45Y | -1.31 natural log
A57M | -1.16 natural log
A57T | -1.15 natural log
E44R | -1.19 natural log
R30D | -0.933 natural log
L38D | -1.53 natural log
A57H | -1.22 natural log

Series 2 — method: RNA Bind-n-Seq; molecule type: RNA; matrix: in vitro; concentration: 365 nM; baseline: no-protein control; reading: higher = stronger binding
Target: RNA binding protein fox-1 homolog 2, RRM domain, GST-SBP tag (RBFOX2, Homo sapiens, UniProt O43251-10, residues 100-194)
Setting: natural RNA segment, single round, ends assumed
Target sequence (chain): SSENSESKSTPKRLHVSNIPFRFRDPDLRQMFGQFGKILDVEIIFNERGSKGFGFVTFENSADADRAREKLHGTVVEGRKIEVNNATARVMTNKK
Oligonucleotide | RBNS enrichment (R)
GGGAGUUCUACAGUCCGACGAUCCAUCAAACGUGCCUUAAAGCUAAAGCAUUUUGACAGGAGUAUUUAAACUUAGUCCAGGAUAUUUUCCUUUGUGUUUUAUAACUUUACAGAGGACCAAAGCAAUUCUUGUUUGGAAUUCUCGGGUGCCAA | 0.312
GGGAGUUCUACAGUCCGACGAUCGGACACUUCACUGCCAUUUUCUAUUCACAUAAAAGAAAAAUAAAUGUGGAAAUUUCAUCCUUGGAAAUGUGUUCUCUAUUCUUUUUAAAUUUUCUGUAUGUAUAUGGAAAUGGAAUUCUCGGGUGCCAA | 0.68
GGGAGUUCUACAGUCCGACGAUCAUUCAGAGACUUUUGCUUUGCUUUCCAACUUGUAUCCCUACAUUCUCACAACAGCCUUCUUACCUCGGGUGAGAGUCAUGAGCACCUUACCAGGCAGGGAGCUUCCCCAGUGGAAUUCUCGGGUGCCAA | 0.384
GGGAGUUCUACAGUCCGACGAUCACCAGGCCCAACACCCACCCUGCCUGGCUCCUCUCCUCAUCCAGACUAACUCUACUGUGAAGUCCCACCACAUUCCAGGUUGGAAUUUUAGAUUCAGGGUGGAUUUUCCCUGGAAUUCUCGGGUGCCAA | 0.519
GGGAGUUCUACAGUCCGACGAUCCUGACAGAAUCCUAAGACGUGAGUUGCUCAUUGUAAAACUAGAAUGUGAAGUGAAGUCACGGAACAAGAUGCUGCUGUUGGGACCUUGAGACCAAAAUUUCAGAGCCCUUUGGAAUUCUCGGGUGCCAA | 0.298
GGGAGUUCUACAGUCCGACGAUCUUCAUGCCCCCUUUGACUGAUCAGUGUGAUAAGGACUUUAGGAAAAAAAGCAUGUAUGUUUUUUACUGUUUGUAAUAAGUACUUUCGUUAAUCUUGCUGCUUAUGUGCCAUGGAAUUCUCGGGUGCCAA | 1.35
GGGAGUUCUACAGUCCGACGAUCCCGUGCCCGCCUGCAGUGGUUGGAGACGGGAGUGGCCCUUCGGCUCCCGAGCUCCCUCUGGGGACGGCUGGCUCACUGUCUCCAGUUCUCAAUGGCCAACGAAGGUGCUUUGGAAUUCUCGGGUGCCAA | 0.282
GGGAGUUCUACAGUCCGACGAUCAAGUGGACACAAGCUGUGCCUGCACAUAGCUGUGCAGGGUAGACUGCCUACAUACACAUGGCCGGGAUUCUUUAUUUCCUUGUUAUCAAUUAUAGUGCUUUGUUUGUUUCUGGAAUUCUCGGGUGCCAA | 0.611
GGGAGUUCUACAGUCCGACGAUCAUGUUUUCCUGGGCUUCAUAUCUGUAUGGCAAGGAGGGAGCUGUCCUUCAGCAGACAAAGUCAAGCAGCUUUAAGUACAAGGCAGCUUGAAACCUCUCUGAUGAAAGUGAUGGAAUUCUCGGGUGCCAA | 0.233
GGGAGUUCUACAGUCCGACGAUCGGUUAUGUCUAUGUUCAUUCUAUAGAAGAAAUGCAAACUAUCACUGUAUUUUAAUAUUUGUUAUUCUCUCAUGAAUAGAAAUUUAUGUAGAAGCAAACAAAAUACUUUUAUGGAAUUCUCGGGUGCCAA | 0.653
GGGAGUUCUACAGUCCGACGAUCUUCAAGCAAAUUAAAAACAAUAAGGUAGGAGGUAUUUCCCACGUCACCCCAAGGUGACCAGCCAUGGCCUGUCAUACUUAGGAGAGCAAGCUUUUUGCGGGUACAGAGCAUGGAAUUCUCGGGUGCCAA | 0.571
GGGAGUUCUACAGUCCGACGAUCUCUAGCUUCAUGCUGGGUCAAGGUGGUUUACCUGGAUGACCCCCCUCCCCCGCCCUCGCCCAUCCCAGGUGUGUGCCACACCCAGUAUUUCUUUCAGGUCUCAACUGUGGUGGAAUUCUCGGGUGCCAA | 0.26

Series 3 — method: protein-binding microarray; molecule type: double-stranded DNA, one strand shown; matrix: in vitro; concentration: 250 nM; setting: 60-bp whole probe; added: salmon DNA 0.4 mg/ml; baseline: random background probes; reading: higher = stronger binding; all sequences stand within: GCCTAGCAC … GTCTTGATTCGCTTGACGCTGCTG
Target: Interferon regulatory factor 7, full length, phosphomimetic (IRF7, Homo sapiens, UniProt Q92985, residues 1-503, S101K/S471D/S472D/S475D/S476D/S477D/S483D/S484D/S487D)
Sequence of UniProt Q92985 (whole entry, unmodified, looked up): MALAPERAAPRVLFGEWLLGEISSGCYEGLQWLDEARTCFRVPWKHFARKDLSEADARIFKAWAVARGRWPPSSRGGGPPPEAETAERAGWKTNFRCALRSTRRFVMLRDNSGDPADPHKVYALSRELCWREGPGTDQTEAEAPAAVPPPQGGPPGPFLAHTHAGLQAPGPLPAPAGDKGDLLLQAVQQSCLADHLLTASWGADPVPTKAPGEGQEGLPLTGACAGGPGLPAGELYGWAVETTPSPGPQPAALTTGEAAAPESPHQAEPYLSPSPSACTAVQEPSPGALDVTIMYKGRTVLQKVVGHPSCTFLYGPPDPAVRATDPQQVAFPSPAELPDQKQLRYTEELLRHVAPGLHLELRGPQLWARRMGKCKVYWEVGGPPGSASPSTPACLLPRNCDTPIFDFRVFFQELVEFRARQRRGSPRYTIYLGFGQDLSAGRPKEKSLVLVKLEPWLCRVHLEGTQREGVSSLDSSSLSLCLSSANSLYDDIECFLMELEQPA
Oligonucleotide | log fluorescence [z-score]
CTAGGTTTCGGGACTGGGTTAGTGCTA | 4.39
GAGGATCTCAGTATCGAGACGTGCTAG | -0.285
TCACTTTTGCTTGTTCTTACTGTGCTA | 0.561
GACGGTTTCGGGACTGGGTACGTGCTA | 4.07
TTAGATTTCGGGTATGGATTAGTGCTA | 0.761
ATAGGTATCGGGTTTCGGTTAGTGCTA | 7.52
TTAGCTCTCGGTATCGGTTAGTGCTAG | 0.965
GACGGATTCGGGTTTCGGGACGTGCTA | 4.92
TCACATTTTTTTTCATCACTGTGCTAG | 1.09
GACGGACTGGACGTTCGGGACGTGCTA | -0.813
CTAGGACTGGACTATCGGTTAGTGCTA | 0.0881
TTAGGTCTCGACACTGGGTTAGTGCTA | 0.031
TCAGCTTTTTAGATCGTACTGTGCTAG | -0.148
AACGGTTTCCTTCTCCTGACGTGCTAG | 2.76
GACGATTTCAGTCTAGAGACGTGCTAG | 0.336
ACCTATAGGTTGTTTCTAATAGTGCTA | 0.0857
GACGGTATCCAACTGCTGACGTGCTAG | -0.412
TTAGGTATCCGGACTGGGTTAGTGCTA | -0.381
GACGGTTTCGGAGTGGGGACGTGCTAG | 2.72

Series 4 — method: universal PBM; molecule type: double-stranded DNA, one strand shown; matrix: in vitro; concentration: 600 nM; reading: higher = stronger binding
Target: Sal-like protein 4, full length isoform A (SALL4, Homo sapiens, UniProt Q9UJQ4, residues 1-1053)
Sequence of UniProt Q9UJQ4 (whole entry, looked up): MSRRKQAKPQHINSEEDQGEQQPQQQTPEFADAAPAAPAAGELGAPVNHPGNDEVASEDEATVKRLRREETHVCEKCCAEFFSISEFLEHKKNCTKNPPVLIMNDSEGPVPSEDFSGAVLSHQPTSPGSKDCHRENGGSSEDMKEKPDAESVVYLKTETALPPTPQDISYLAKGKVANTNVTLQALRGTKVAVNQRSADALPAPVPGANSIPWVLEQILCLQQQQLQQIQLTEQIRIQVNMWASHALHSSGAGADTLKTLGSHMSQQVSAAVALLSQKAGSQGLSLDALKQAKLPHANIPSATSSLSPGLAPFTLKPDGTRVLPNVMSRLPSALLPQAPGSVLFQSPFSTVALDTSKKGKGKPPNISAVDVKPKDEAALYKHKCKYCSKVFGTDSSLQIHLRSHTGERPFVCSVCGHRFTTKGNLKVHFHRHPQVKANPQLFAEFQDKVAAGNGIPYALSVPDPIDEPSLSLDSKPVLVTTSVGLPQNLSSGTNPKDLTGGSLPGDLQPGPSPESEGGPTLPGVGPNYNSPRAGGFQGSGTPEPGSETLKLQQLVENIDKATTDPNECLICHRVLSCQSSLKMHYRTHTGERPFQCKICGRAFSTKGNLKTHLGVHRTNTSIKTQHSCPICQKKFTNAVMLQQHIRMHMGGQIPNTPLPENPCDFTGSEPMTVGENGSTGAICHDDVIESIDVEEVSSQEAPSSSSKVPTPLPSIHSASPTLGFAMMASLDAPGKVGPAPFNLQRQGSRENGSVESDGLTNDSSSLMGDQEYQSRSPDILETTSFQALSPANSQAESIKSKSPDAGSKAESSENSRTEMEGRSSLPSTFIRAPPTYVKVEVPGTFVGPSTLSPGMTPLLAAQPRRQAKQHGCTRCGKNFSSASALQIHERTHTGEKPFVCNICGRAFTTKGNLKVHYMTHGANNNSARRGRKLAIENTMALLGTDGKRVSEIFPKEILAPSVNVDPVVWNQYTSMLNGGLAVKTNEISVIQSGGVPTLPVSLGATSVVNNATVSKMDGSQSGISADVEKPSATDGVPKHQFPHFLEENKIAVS
Setting: 8-mer, flanks averaged, mean of replicates
Oligonucleotide | E-score
CCAAAAGA | 0.215
CACTGACA | 0.0595
AATTAAAC | 0.287
TCGATGAA | 0.172
CTTGGCTC | -0.128
ATAAGTAA | 0.384
ATTCATCC | 0.101
AAGGCGTA | -0.0759
CGAGGAAG | -0.172
CCTTACGC | 0.00709
CTCCGACC | -0.284
AGTAACCA | -0.0213
GGTATAAA | 0.226
AATCAGAA | 0.128
TCTAGGCA | -0.0185
CGGCGACA | -0.196
AGTGGACG | 0.0104
CCTAGAAA | 0.0761
ATTGAATG | 0.233
GATGGAGA | -0.0537
AAGAGGGG | -0.113
CCGACGAA | -0.00604
ACTTTATG | 0.269

Series 5 — target: CCNE2, cyclin fold, Cln2 fusion (human); method: yeast growth competition, sequencing; matrix: yeast; setting: weak parent motif; baseline: not given; reading: higher = stronger binding
Starting sequence: AKAP12 docking peptide (human); GSPLKKLFTSTGL
Change | normalised enrichment score
T9A | 0.52
G1A | 0.767
K6A | -0.0107
K5A | -0.303
T11A | 0.0459
K5R | 0.33
L7A | -0.269

Series 6 — method: DHFR PCA, dose-response; matrix: yeast; setting: Hill fit, not affinity; added: (+)-ABA, dose series; reading: lower = more sensitive
Target: ABI1, truncated, D143A, DHFR fusion (Arabidopsis thaliana, UniProt P49597)
Starting sequence: PYL1, truncated, DHFR fusion (Arabidopsis thaliana, UniProt Q8VZS8); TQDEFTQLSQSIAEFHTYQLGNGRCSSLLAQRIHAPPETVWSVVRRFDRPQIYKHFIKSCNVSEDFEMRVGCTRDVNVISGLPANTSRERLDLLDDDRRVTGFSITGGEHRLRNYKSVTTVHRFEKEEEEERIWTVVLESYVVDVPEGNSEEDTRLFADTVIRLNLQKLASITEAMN
Change | ABA EC50 [µM]
V78L | 10.8
T119N | 2390
T135G | 1130
G108D | 1220

Further values, each from its own experiment
Substance | target | assay | system | setting | how to read | endpoint | result
PhoQ, residues 284 288 289 292 302 303 NLALSC | PhoP, residues 12 14 15 18 19 TQAIL (Escherichia coli, UniProt P23836) | Sort-seq, item: YFP reporter | E. coli | PhoQ-PhoP variant library, added: 10 µM Mg2+ | baseline: high Mg2+ state, higher = stronger signaling | fold induction | 1.09

Repeated from above (series 3):
Oligonucleotide | log fluorescence [z-score]
GACGGTTTCGGGACTGGGTACGTGCTA | 4.07
TTAGATTTCGGGTATGGATTAGTGCTA | 0.761
ATAGGTATCGGGTTTCGGTTAGTGCTA | 7.52
TTAGCTCTCGGTATCGGTTAGTGCTAG | 0.965
GACGGATTCGGGTTTCGGGACGTGCTA | 4.92
TCACATTTTTTTTCATCACTGTGCTAG | 1.09
GACGGACTGGACGTTCGGGACGTGCTA | -0.813
CTAGGACTGGACTATCGGTTAGTGCTA | 0.0881
TTAGGTCTCGACACTGGGTTAGTGCTA | 0.031
TCAGCTTTTTAGATCGTACTGTGCTAG | -0.148
AACGGTTTCCTTCTCCTGACGTGCTAG | 2.76
GACGATTTCAGTCTAGAGACGTGCTAG | 0.336
ACCTATAGGTTGTTTCTAATAGTGCTA | 0.0857
